Results gathered from unrelated publications.
Parts stem from different laboratories: compare values within a part only. Positions count from the first letter of the parent shown.

Block 1
Target: Ras GTPase-activating protein-binding protein 1, full length (G3BP1, Homo sapiens, UniProt Q13283)
UniProt Q13283, sequence (whole entry, looked up): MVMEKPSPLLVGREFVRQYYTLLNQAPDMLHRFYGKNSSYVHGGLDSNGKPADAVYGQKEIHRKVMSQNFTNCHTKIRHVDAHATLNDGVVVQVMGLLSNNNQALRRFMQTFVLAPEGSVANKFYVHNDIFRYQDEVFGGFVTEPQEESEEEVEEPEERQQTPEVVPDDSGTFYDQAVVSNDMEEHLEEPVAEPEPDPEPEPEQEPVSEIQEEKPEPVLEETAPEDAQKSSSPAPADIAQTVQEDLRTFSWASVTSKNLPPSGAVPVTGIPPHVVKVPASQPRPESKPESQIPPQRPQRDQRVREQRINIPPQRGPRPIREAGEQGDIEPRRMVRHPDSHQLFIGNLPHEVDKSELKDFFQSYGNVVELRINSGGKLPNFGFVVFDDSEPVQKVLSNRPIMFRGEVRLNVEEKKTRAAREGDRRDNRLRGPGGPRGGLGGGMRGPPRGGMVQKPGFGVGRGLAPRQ
Technique: RNA Bind-n-Seq
Form: RNA
Sample: in vitro
Concentration: 200 nM
Notes: whole 134-nt RNA, ends assumed
Together with: 150 mM KCl
Relative to: input library
Reading: higher = stronger binding
Shared flanks, not repeated: GGGAGUUCUACAGUCCGACGAUC … UGGAAUUCUCGGGUGUCAAGG
| Strand | log2 enrichment |
| --- | --- |
| AAGUCCUGUGCUACACAUCGUAUGUACCGAAUCGGCCCCGGGGCCCCGGGGCCCCGGAAAGUAUUAUGUUACGCCGUUCGGAUCUGCACU | 0.374 |
| UAACUUUAGAGGAGGAUCAGAUGGAUAUGGCAGUGGACGUGGAUUUGGGGAUGGCUAUAAUGGGUAUGGAGGAGGACCUGGAGGUGGCAA | 0.315 |
| ACCAUGCAGGUGGGCAUCUUUGGGAAGUGAAACAAGGGGGGGAUAGGGAGGGGGGUAACACUUUGGGAACAGGUGGUCCCAGGUCGUUUC | 1.56 |
| GCAGGAAGUAAAAACAAAUGGAAAUGCUUCGGACAGUGGCAGGGGUGGGGGUUGCUAAGGAAAGGGUGGGAUGGGAGUGGGUAAAGAGUU | 1.16 |
| CUCAAGUCCUGUGCUACACAUCGUAUGUACCGAAUCGGGUGGGGUGGGGUGGGGAAAGUAUUAUGUUACGCCGUUCGGAUCUGCACUUCC | 1.35 |
| UCCUGUGCUACACAUCGUAUGUACCGAAUCAAAUUUAAAUUUUUUUAAACCCCCCCAAAAAAGUAUUAUGUUACGCCGUUCGGAUCUGCA | 0.211 |
| UCCUCAAGUCCUGUGCUACACAUCGUAUGUACCGAAUCGGGCGGGCGGGCGGAAAGUAUUAUGUUACGCCGUUCGGAUCUGCACUUCCAG | 1.72 |
| UCAAUGCCGGCUAUGCCCUGGCCCCAGCCACCAGUGCCAACGACAGCGAGCAGCAGAGCCUGUCCAGCGAUGCAGACACCCUGUCCCUCA | 0.255 |
| CAAGUCCUGUGCUACACAUCGUAUGUACCGAAUCGGUUUGGAAAGGAAAAAAAGGAAAGUAUUAUGUUACGCCGUUCGGAUCUGCACUUC | -0.697 |
| CAAGUCCUGUGCUACACAUCGUAUGUACCGAAUCGGUUUUUGGUUUGGAAAAAGGAAAGUAUUAUGUUACGCCGUUCGGAUCUGCACUUC | -1.09 |
| CAAGUCCUGUGCUACACAUCGUAUGUACCGAAUCGGGAGGGUUUUUGGGAAAGGGAAAGUAUUAUGUUACGCCGUUCGGAUCUGCACUUC | 0.357 |
| CUGUGCUACACAUCGUAUGUACCGAAUCGGGGCCCCCCCGGGGCCCCCCCGGCCCCCCCGGGAAAGUAUUAUGUUACGCCGUUCGGAUCU | -1.12 |
| UCAGGAAGUAAAAACAAAUGGAAAUGCUUCGGAUAGUGGCAGGGGUGGGGGUUGCUAAGGAAAGGGUGGGAUGGGAGUGGGUAAAGAGUU | 0.805 |
| UGGGAGGUGGAUUUUGUUUAUUUUUUUAGCUCAUUUCCAGGGGUGGGAAUCUUUUUUUAAUAUGUGUCAUGAAUAAAGUUGUUUUUGAAA | 0.423 |

Block 2
Target: CCNB2, cyclin fold, Cln2 fusion (human)
Technique: yeast growth competition, sequencing
Sample: yeast
Notes: weak parent motif
Relative to: not given
Reading: higher = stronger binding
Starting sequence: GMNC docking peptide (human); KNAKRNLSSEFAN; partner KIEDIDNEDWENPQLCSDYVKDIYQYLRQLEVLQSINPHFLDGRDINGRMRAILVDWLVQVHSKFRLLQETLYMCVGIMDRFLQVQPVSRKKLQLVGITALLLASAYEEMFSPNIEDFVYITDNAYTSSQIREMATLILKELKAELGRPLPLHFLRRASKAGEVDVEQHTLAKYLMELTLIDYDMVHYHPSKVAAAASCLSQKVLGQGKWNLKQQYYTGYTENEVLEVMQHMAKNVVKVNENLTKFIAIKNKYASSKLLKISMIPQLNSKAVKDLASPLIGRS
| Change | normalised enrichment score |
| --- | --- |
| KNAKRNQSSEFAN [L7Q] | 0.0389 |
| KNAKRFLSSEFAN [N6F] | 0.26 |
| KMAKRNLSSEFAN [N2M] | 0.267 |
| KNAKRNLSSKFAN [E10K] | 0.486 |
| KAAKRNLSSEFAN [N2A] | 0.893 |
| KNAKRNLSSENAN [F11N] | 0.00798 |
| KNAKRNLASEFAN [S8A] | 0.389 |
| KNAKRNLSSTFAN [E10T] | 0.0311 |
| KNATRNLSSEFAN [K4T] | -0.0645 |
| KNAKRNLSSEDAN [F11D] | 0.146 |
| KNAKRNLSSEYAN [F11Y] | 0.297 |
| KSAKRNLSSEFAN [N2S] | 0.584 |
| KNAKINLSSEFAN [R5I] | 0.0464 |
| KNARRNLSSEFAN [K4R] | 0.929 |
| KCAKRNLSSEFAN [N2C] | 0.611 |
| KNAKRNVSSEFAN [L7V] | 0.119 |
| KNTKRNLSSEFAN [A3T] | 0.894 |
| KNAKRWLSSEFAN [N6W] | 0.293 |
| KNADRNLSSEFAN [K4D] | 0.119 |
| KNAKRNLSSIFAN [E10I] | 0.0372 |
| KNAKRNLSSEVAN [F11V] | 0.651 |
| KQAKRNLSSEFAN [N2Q] | 0.949 |

Block 3
Target: MAFK, bZIP domain (human)
Technique: DHFR protein complementation
Sample: yeast
Notes: single substitutions, most at no-binding floor
Relative to: wild-type JUN-FOS pair
Reading: higher = stronger binding
Starting sequence: JUN, bZIP domain (human); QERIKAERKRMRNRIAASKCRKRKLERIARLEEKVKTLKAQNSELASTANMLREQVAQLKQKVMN; partner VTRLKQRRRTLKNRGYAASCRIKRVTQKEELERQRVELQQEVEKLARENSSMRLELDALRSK
| Change | binding fitness [natural log] |
| --- | --- |
| E44S | -1.4 |
| V35T | -1.42 |
| M51S | -1.5 |
| S47M | -1.45 |
| K34S | -1.51 |
| L45Y | -1.46 |
| I28A | -1.32 |
| A49E | -1.46 |
| V56W | -1.52 |
| N42M | -1.35 |
| E44H | -1.48 |
| A49M | -1.22 |
| A46R | -1.48 |
| E44P | -1.54 |
| A46P | -1.47 |
| E33V | -1.48 |
| S43H | -1.41 |
| N42I | -1.23 |
| K39S | -1.55 |
| V56A | -1.47 |
| K39E | -1.55 |
| L52S | -1.49 |
| A29L | -1.5 |
| L52M | -1.5 |
| Q55E | -1.41 |

Block 4
Target: Histone acetyltransferase KAT6A, winged helix 1, GST fusion (KAT6A, Homo sapiens, UniProt Q92794, residues 1-85)
Technique: protein binding microarray
Form: double-stranded DNA, one strand shown
Sample: in vitro
Concentration: not given
Notes: 8-mer, flanks averaged, mean of 2 arrays, mostly near background
Relative to: not given
Reading: higher = stronger binding
Construct (chain): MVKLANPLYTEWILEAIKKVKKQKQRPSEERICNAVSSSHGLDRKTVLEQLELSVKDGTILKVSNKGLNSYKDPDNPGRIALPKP
| Strand | E-score |
| --- | --- |
| AGAGCAAG | -0.12 |
| ACCCTGTG | -0.0559 |
| ACTAAGCC | 0.0573 |
| AAGAAGCG | 0.166 |
| GGATGAGA | -0.14 |
| ATGATCCG | 0.213 |
| ATCAGTCC | -0.124 |
| AACGGTTA | 0.114 |
| ATGATAGA | -0.04 |
| ATTGCTTC | -0.0498 |
| CACGGCTA | 0.408 |
| AGAGACGC | 0.193 |
| GATACTTA | -0.142 |
| CCACTGCG | 0.145 |
| AACCGCCT | 0.203 |
| CTATGGCA | -0.143 |
| TAGACTCA | -0.112 |
| ACATGTGG | -0.118 |
| CAGTAATC | -0.144 |
| CCTTTCGA | -0.0876 |
| CTTGCGCA | 0.29 |
| CCATGCGG | 0.148 |
| CGAGTACG | 0.232 |
| CGGGACCC | 0.336 |
| AATCCATA | -0.195 |

Block 5
Target: Sal-like protein 4, full length isoform B (SALL4, Homo sapiens, UniProt Q9UJQ4-2, residues 1-616)
Technique: universal PBM
Form: double-stranded DNA, one strand shown
Sample: in vitro
Concentration: not given
Notes: 8-mer, flanks averaged, mean of replicates
Reading: higher = stronger binding
| Strand | E-score |
| --- | --- |
| TAACCACA | 0.132 |
| AACACAGG | -0.0996 |
| AACGCATA | 0.177 |
| CGTATACC | -0.245 |
| TAAACGTA | 0.25 |
| GTCATAAA | 0.399 |
| AAGGGAAT | 0.0998 |
| GAGGGACA | -0.215 |
| CGGAGAGC | -0.117 |
| CGTGTGTC | -0.113 |
| AAAATTGC | 0.311 |
| CACATGCC | 0.0697 |
| ATATGGGA | 0.19 |
| AAACACTA | 0.235 |
| ATCCAACC | -0.122 |
| TCGGAAAA | 0.209 |
| TAGGGCGA | -0.0662 |
| TAAATTTA | 0.366 |
| ACCTACCT | -0.0588 |
| ATCCGGAG | -0.0166 |
| CCCATGGC | -0.345 |
| GCAAAATA | 0.357 |

Block 6
Target: Interferon regulatory factor 7, full length, phosphomimetic (IRF7, Homo sapiens, UniProt Q92985, residues 1-503, S471D/S472D/S475D/S476D/S477D/S483D/S484D/S487D)
UniProt Q92985, sequence (whole entry, unmodified, looked up): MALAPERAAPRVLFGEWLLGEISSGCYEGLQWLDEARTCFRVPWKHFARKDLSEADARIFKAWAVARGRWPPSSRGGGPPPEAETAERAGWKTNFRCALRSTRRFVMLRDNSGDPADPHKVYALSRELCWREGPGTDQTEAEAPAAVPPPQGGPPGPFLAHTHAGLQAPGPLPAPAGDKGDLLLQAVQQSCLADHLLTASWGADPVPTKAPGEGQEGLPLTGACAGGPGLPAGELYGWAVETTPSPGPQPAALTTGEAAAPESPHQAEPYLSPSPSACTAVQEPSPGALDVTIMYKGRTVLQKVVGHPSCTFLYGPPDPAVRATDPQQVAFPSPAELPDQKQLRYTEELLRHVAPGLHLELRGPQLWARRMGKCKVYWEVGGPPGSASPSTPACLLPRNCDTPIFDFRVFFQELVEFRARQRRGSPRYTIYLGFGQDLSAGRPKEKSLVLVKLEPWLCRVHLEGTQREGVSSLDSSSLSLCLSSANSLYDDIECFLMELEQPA
Technique: protein-binding microarray
Form: double-stranded DNA, one strand shown
Sample: in vitro
Concentration: 2200 nM top
Notes: 60-bp whole probe
Together with: salmon DNA 0.4 mg/ml
Relative to: random background probes
Reading: higher = stronger binding
Shared flanks, not repeated: GCCTAGCAC … GTCTTGATTCGCTTGACGCTGCTG
| Strand | fitted relative affinity [z-score] |
| --- | --- |
| TTAGGTACCGGGACTGGGTTAGTGCTA | -0.692 |
| GGATGTCTGTAGCTCATTCTGTGCTAG | 0.638 |
| TTAGGTATCCGGACTGGGTTAGTGCTA | -0.462 |
| GATGGTTTCGGTTCCGGGACGTGCTAG | 12.3 |
| TTCACTTTCCAAAACATGAAGTGCTAG | 2.3 |
| CCAGCAGGGTTAGGCTTGCTGTGCTAG | -1.27 |
| GACGATATCGGGTCTCGAGACGTGCTA | 0.217 |
| TTAGGCTTCCTTTCCCTTTAGTGCTAG | 2.68 |
| TCAAGACTCATAATGGCACTGTGCTAG | -0.121 |
| TTAGGTTCCGGTTTCGGCTAGTGCTAG | 5.29 |
| AACTGCTGCCGTCCACCACTGTGCTAG | 0.513 |
| GCAACATTCACCATGGCTAGGTGCTAG | 0.914 |
| TTAGGACTGGACACAGGGTTAGTGCTA | -0.935 |
| GACGTACTGGGGACTGGAGACGTGCTA | -0.25 |
| TTTGGTATCCTACTGCTTTAGTGCTAG | 1.34 |
| ACCTATAGGTTGTTTCTAATAGTGCTA | 0.462 |
| GAAGGTTTCGGGACTGGGGACGTGCTA | 2.98 |

Some of these lines once more (block 3):
| Change | binding fitness [natural log] |
| --- | --- |
| K34S | -1.51 |
| L45Y | -1.46 |
| I28A | -1.32 |
| A49E | -1.46 |
| V56W | -1.52 |
| N42M | -1.35 |
| E44H | -1.48 |
| A49M | -1.22 |
| A46R | -1.48 |
| E44P | -1.54 |
| A46P | -1.47 |
| E33V | -1.48 |
| S43H | -1.41 |
| N42I | -1.23 |
| K39S | -1.55 |
| V56A | -1.47 |
| K39E | -1.55 |
| L52S | -1.49 |
| A29L | -1.5 |
| L52M | -1.5 |
